Published values collected from several papers.
Compare with care: the assays were run in different laboratories. Values joined by “and” are separate records of one study, mostly repeats; a detail may differ. ± gives the spread as reported. In brackets after ≈: the same amount, converted by molar mass.

CCOC(=O)C1(Cc2ccc(C#N)cc2F)Oc2cc(F)ccc2N(Cc2ccc(C#N)cc2F)C1=O (centres unmarked)  inhibition (Arabidopsis thaliana; stem length, petri dish germination; Col-0, 1/2 MS medium; 50 µg/mL, 7 days, 22 °C, dark): 19.1%
CN1CCN(S(=O)(=O)c2ccc(-c3ccc4ncnc(Nc5ccc(OCc6ccccc6)cc5)c4c3)cc2)CC1  EC50 (Plasmodium falciparum; parasite growth, SYBR Green; D6; blood stage): 41 nM
CC(O)CN.O=C(O)C(Cl)Cl  herbicidal inhibition (Xanthium sibiricum; 15 mg/mL, 21 days, pre-emergence, greenhouse): 0%
C[N+]1=C2C(c3ccc(Cl)cc3)=[N+]([O-])c3ccccc3N2CCC1  MIC90 (Fusobacterium nucleatum): 8 µg/mL
Fc1cccc(COc2ccc(Nc3ncnc4ccc(-c5ccc(N6CCOCC6)cc5)cc34)cc2Cl)c1  EC50 (Plasmodium falciparum; parasite growth, SYBR Green fluorescence; W2, drug-resistant): 1100 nM
CC[C@H](C)[C@H](NC(=O)[C@H](CCCCN)NC(=O)[C@H](CCCCN)NC(=O)[C@H](Cc1ccccc1)NC(=O)[C@H](Cc1ccccc1)NC(=O)[C@H](CCCCN)NC(=O)[C@H](CCCCN)NC(=O)[C@H](Cc1ccccc1)NC(=O)[C@H](CCCNC(=N)N)NC(=O)[C@@H](N)CCCCN)C(=O)N[C@@H](CCCCN)C(=O)N[C@@H](CCCCN)C(=O)N[C@@H](CO)C(=O)N[C@H](C(=O)N[C@@H](CCCCN)C(=O)N[C@@H](CCCCN)C(=O)N[C@@H](CCCNC(=N)N)C(=O)N[C@H](C(=O)N[C@@H](CCCCN)C(=O)N[C@@H](CCCCN)C(=O)N[C@@H](CC(C)C)C(=O)N[C@@H](Cc1ccccc1)C(=O)N[C@@H](CCCCN)C(=O)N[C@@H](CCCCN)C(=O)N1CCC[C@H]1C(=O)N[C@@H](CCCNC(=N)N)C(=O)N[C@H](C(=O)N[C@H](C(=O)N1CCC[C@H]1C(=O)N[C@H](C(=O)N[C@@H](CO)C(=O)N[C@H](C(=O)N1CCC[C@H]1C(=O)N[C@@H](Cc1ccccc1)C(=O)O)[C@@H](C)CC)[C@@H](C)CC)[C@@H](C)CC)C(C)C)C(C)C)C(C)C  MBC (Klebsiella pneumoniae; ATCC 13883; 20 h): 4 µg/mL (≈ 0.948 µM)
CC(C)C[C@H](NC(=O)[C@H](CC(C)C)NC(=O)[C@H](CCCCN)NC(=O)[C@H](Cc1ccccc1)NC(=O)[C@@H](NC(=O)[C@H](CCCNC(=N)N)NC(=O)[C@@H](N)CCCCN)C(C)C)C(=O)N[C@@H](CCCCN)C(=O)N[C@@H](CCCNC(=N)N)C(=O)N[C@@H](Cc1ccc(O)cc1)C(=O)N[C@@H](Cc1c[nH]c2ccccc12)C(=O)N[C@@H](CCCNC(=N)N)C(=O)N[C@@H](CCC(N)=O)C(=O)N[C@@H](CC(C)C)C(=O)N[C@@H](CCCCN)C(=O)N[C@@H](CCCCN)C(=O)N1CCC[C@H]1C(=O)N[C@H](C(=O)N[C@@H](CCCNC(=N)N)C(=O)NCCOCCOCC(=O)O)C(C)C  biofilm eradication (Pseudomonas aeruginosa and Staphylococcus aureus; crystal violet; polymicrobial biofilm; 16 to 32 µM, 24 h, 24 h mature biofilm): > 80%
CC(C)C[C@H](NC(=O)[C@H](Cc1ccccc1)NC(=O)[C@H](CCC(N)=O)NC(=O)[C@H](Cc1ccc(O)cc1)NC(=O)[C@H](CCCCN)NC(=O)[C@@H]1CCCN1C(=O)[C@H](CCCNC(=N)N)NC(=O)[C@H](CCC(N)=O)NC(=O)[C@H](Cc1c[nH]c2ccccc12)NC(=O)[C@H](CS)NC(=O)[C@H](Cc1c[nH]c2ccccc12)NC(=O)[C@H](Cc1ccccc1)NC(=O)[C@H](CCCNC(=N)N)NC(=O)[C@H](CCCCN)NC(=O)[C@H](CCCCN)NC(=O)[C@H](CCCCN)NC(=O)[C@@H](NC(=O)[C@@H](NC(=O)[C@H](CC(C)C)NC(=O)[C@@H](N)CO)C(C)C)[C@@H](C)O)C(=O)O  MBC (Micrococcus luteus; NCTC 2665): 8 µg/mL (≈ 3.03 µM)
CN(C(=O)c1ccn2ncc(-c3ccc(C(N)=O)cc3)c2c1)c1ccc(C#N)cn1  faecal Nluc luminescence (Cryptosporidium parvum; UGA1 Nluc, IFN-gamma knockout C57BL/6 mice, faeces; oral, 10 mg/kg daily, 120 h post infection, treatment days 11-17; higher means more parasites): 3990 a.u. and 6640 a.u. and 1030 a.u. and 1650 a.u. and 2570 a.u.
CN(C)c1nc(NCc2ccc(F)c(C(F)(F)F)c2)c(/N=N/c2ccc(Cl)cc2)c(N(C)C)n1  mortality (Plutella xylostella; leaf dipping; 200 mg/L, 96 h): 46.7 ± 5.8%
CC(C)[C@H]1NC(=O)[C@H](Cc2ccccc2)NC(=O)[C@@H](C(C)C)NC(=O)[C@@H](C)NC(=O)[C@H](CO)NC(=O)[C@@H](Cc2c(-c3ccc(-c4ccccc4)c4ccccc34)[nH]c3ccccc23)NC(=O)[C@@H](CO)NC1=O  MIC90 (Candida albicans; broth dilution): > 50 µM
CCOC(=O)C1(Cc2ccc(C#N)cc2)Oc2cc(F)ccc2N(Cc2ccc(C#N)cc2)C1=O (centres unmarked)  inhibition (Arabidopsis thaliana; root length, petri dish germination; Col-0, 1/2 MS medium; 200 µg/mL, 7 days, 22 °C, dark): 60.2%
Clc1cc(Nc2ncnc3ccc(-c4cccc(N5CCOCC5)c4)cc23)ccc1OCc1ccccc1  EC50 (Plasmodium falciparum; parasite growth, SYBR Green fluorescence; W2, drug-resistant): 1700 nM
CC1(C)Cc2sc(NC(=O)Cc3ccc(S(N)(=O)=O)cc3)c(C#N)c2CN1CC1CCCCC1  EC50 (Dengue virus 2; viral replication; P15-S10 passaged with DMSO): 14.2 nM and 13.8 nM
CCOC(=O)C1(Cc2ccccc2)Oc2cc(C)ccc2N(Cc2ccccc2)C1=O (centres unmarked)  inhibition (Arabidopsis thaliana; stem length, petri dish germination; Col-0, 1/2 MS medium; 200 µg/mL, 7 days, 22 °C, dark): 100%
Cc1ccc(N2CC3CC(C2)N3C)cc1C(=O)NC1(c2ccc3c4c(cccc24)C(=O)N3C)CC1  inhibition (Betacoronavirus 1; viral replication; Huh-7, OC43; 100 µM): 100%
CC[C@H](C)CCCCC(=O)N[C@@H](CCN)C(=O)N[C@H](C(=O)N[C@@H](CCN)C(=O)N[C@H]1CCNC(=O)[C@H]([C@@H](C)O)NC(=O)[C@H](CCN)NC(=O)[C@H](CCN)NC(=O)[C@H](CC(C)C)NC(=O)[C@@H](CC(C)C)NC(=O)[C@H](CCN)NC1=O)[C@@H](C)O  MIC fold change (Escherichia coli; daily serial passaging; ATCC 8739; highest sub-MIC, 41 days; baseline: initial MIC): 1.63
CCOC(=O)C1(Cc2ccccc2)Oc2cc(OC)ccc2N(Cc2ccccc2)C1=O (centres unmarked)  inhibition (Arabidopsis thaliana; root length, petri dish germination; Col-0, 1/2 MS medium; 50 µg/mL, 7 days, 22 °C, dark): 32.5%
CCCCCCCC(=O)NCCCC[C@H](NC(=O)CCCCCCC)C(=O)N[C@@H](CCCCNC(=O)CCCCCCC)C(=O)NCC(=O)NCC(=O)NCC(=O)N[C@@H](CS)C(=O)N[C@@H](CCCNC(=N)N)C(=O)N[C@@H](CCCCN)C(=O)N1CCC[C@H]1C(N)=O  MIC (Candida albicans; broth microdilution; SP 3931, RPMI-1640; 48 h, 30 °C): > 128 µM
Cc1cc(C(=O)Nc2nc3cccc(C)c3n2[C@H]2CCCCN(C(=O)/C=C/CN(C)C)C2)ccn1  survival (Trypanosoma brucei brucei; 2T1 wild type; 50 x EC50): -0.047% and -0.095% and -0.109% and -0.059%
Cc1ccc(Nc2ncnc3ccc(-c4ccc(S(=O)(=O)N5CCOCC5)cc4)cc23)cc1  EC50 (Plasmodium falciparum; parasite growth, SYBR Green; D6; blood stage): 1700 nM
[O-][N+]1=C(Cc2ccccc2)C2=NCCCN2c2ccccc21  MIC90 (Fusobacterium nucleatum): 4 µg/mL
O=CCNCCOn1c(=O)n(OCCNCCO)c(=O)n(OCCNCCOn2c(=O)n(OCCNCCO)c(=O)n(OCCNCCO)c2=O)c1=O  MLC (Alternaria solani; broth microdilution): 32 ± 3 µg/mL (≈ 41.6 µM)
FC(F)(F)c1cccc(CNc2nc(NC3CCN(Cc4ccccc4)CC3)c3nc[nH]c3n2)c1  mRNA fold change (Cryptococcus neoformans; RNA-seq, refers to: TEP1 (CNAG_04833); 48 µg/mL, 3 h; baseline: untreated): 1.38
Cc1cc(-c2ccc3ncnc(Nc4ccc(OCc5cccc(F)c5)c(Cl)c4)c3c2)cnc1N1CCOCC1  EC50 (Plasmodium falciparum; parasite growth, SYBR Green fluorescence; W2, drug-resistant): 540 nM
CCOC(=O)C1(Cc2ccc(C)cc2)Oc2cc(F)ccc2N(Cc2ccc(C)cc2)C1=O (centres unmarked)  inhibition (Arabidopsis thaliana; stem length, petri dish germination; Col-0, 1/2 MS medium; 200 µg/mL, 7 days, 22 °C, dark): 71.9%
Fc1cccc(COc2ccc(Nc3ncnc4ccc(-c5cccc(N6CCCCC6)c5)cc34)cc2Cl)c1  EC50 (Plasmodium falciparum; parasite growth, SYBR Green fluorescence; C235 (TM91C235), drug-resistant): 1100 nM
COc1ccc2nc3cc(Cl)ccc3c(NCCNC(C)=C3C(=O)C=C4Oc5c(C(C)=O)c(O)c(C)c(O)c5C4(C)C3=O)c2c1 (centres unmarked)  mean survival time (Plasmodium berghei; ANKA GFP, mouse NMRI; intraperitoneal, 4 × 50 mg/kg): 7 days
Fc1cccc(COc2ccc(Nc3ncnc4ccc(-c5ccc(N6CCNCC6)cc5)cc34)cc2Cl)c1  EC50 (Plasmodium falciparum; parasite growth, SYBR Green fluorescence; C235 (TM91C235), drug-resistant): 760 nM
CC(=O)c1c(O)c(C)c(O)c2c1OC1=CC(=O)C(=C(C)NCCCC(=O)OC3OC4OC5(C)CCC6C(C)CCC(C3C)C46OO5)C(=O)C12C (centres unmarked)  mean survival time (Plasmodium berghei; ANKA GFP, NMRI mouse; oral, 4 x 10 mg/kg): 10 days
CCOC(=O)C1(Cc2cc(F)c(F)c(F)c2)Oc2cc(F)ccc2N(Cc2cc(F)c(F)c(F)c2)C1=O (centres unmarked)  inhibition (Arabidopsis thaliana; root length, petri dish germination; Col-0, 1/2 MS medium; 50 µg/mL, 7 days, 22 °C, dark): 35%
Fc1cccc(COc2ccc(Nc3ncnc4ccc(-c5ccc(CN6CCCCC6)cc5)cc34)cc2Cl)c1  EC50 (Plasmodium falciparum; parasite growth, SYBR Green fluorescence; C235 (TM91C235), drug-resistant): 91 nM

Excerpt of the above:
Fc1cccc(COc2ccc(Nc3ncnc4ccc(-c5ccc(N6CCOCC6)cc5)cc34)cc2Cl)c1  EC50 (Plasmodium falciparum; parasite growth, SYBR Green fluorescence; W2, drug-resistant): 1100 nM
CC[C@H](C)[C@H](NC(=O)[C@H](CCCCN)NC(=O)[C@H](CCCCN)NC(=O)[C@H](Cc1ccccc1)NC(=O)[C@H](Cc1ccccc1)NC(=O)[C@H](CCCCN)NC(=O)[C@H](CCCCN)NC(=O)[C@H](Cc1ccccc1)NC(=O)[C@H](CCCNC(=N)N)NC(=O)[C@@H](N)CCCCN)C(=O)N[C@@H](CCCCN)C(=O)N[C@@H](CCCCN)C(=O)N[C@@H](CO)C(=O)N[C@H](C(=O)N[C@@H](CCCCN)C(=O)N[C@@H](CCCCN)C(=O)N[C@@H](CCCNC(=N)N)C(=O)N[C@H](C(=O)N[C@@H](CCCCN)C(=O)N[C@@H](CCCCN)C(=O)N[C@@H](CC(C)C)C(=O)N[C@@H](Cc1ccccc1)C(=O)N[C@@H](CCCCN)C(=O)N[C@@H](CCCCN)C(=O)N1CCC[C@H]1C(=O)N[C@@H](CCCNC(=N)N)C(=O)N[C@H](C(=O)N[C@H](C(=O)N1CCC[C@H]1C(=O)N[C@H](C(=O)N[C@@H](CO)C(=O)N[C@H](C(=O)N1CCC[C@H]1C(=O)N[C@@H](Cc1ccccc1)C(=O)O)[C@@H](C)CC)[C@@H](C)CC)[C@@H](C)CC)C(C)C)C(C)C)C(C)C  MBC (Klebsiella pneumoniae; ATCC 13883; 20 h): 4 µg/mL (≈ 0.948 µM)
CC(C)C[C@H](NC(=O)[C@H](CC(C)C)NC(=O)[C@H](CCCCN)NC(=O)[C@H](Cc1ccccc1)NC(=O)[C@@H](NC(=O)[C@H](CCCNC(=N)N)NC(=O)[C@@H](N)CCCCN)C(C)C)C(=O)N[C@@H](CCCCN)C(=O)N[C@@H](CCCNC(=N)N)C(=O)N[C@@H](Cc1ccc(O)cc1)C(=O)N[C@@H](Cc1c[nH]c2ccccc12)C(=O)N[C@@H](CCCNC(=N)N)C(=O)N[C@@H](CCC(N)=O)C(=O)N[C@@H](CC(C)C)C(=O)N[C@@H](CCCCN)C(=O)N[C@@H](CCCCN)C(=O)N1CCC[C@H]1C(=O)N[C@H](C(=O)N[C@@H](CCCNC(=N)N)C(=O)NCCOCCOCC(=O)O)C(C)C  biofilm eradication (Pseudomonas aeruginosa and Staphylococcus aureus; crystal violet; polymicrobial biofilm; 16 to 32 µM, 24 h, 24 h mature biofilm): > 80%
CC(C)C[C@H](NC(=O)[C@H](Cc1ccccc1)NC(=O)[C@H](CCC(N)=O)NC(=O)[C@H](Cc1ccc(O)cc1)NC(=O)[C@H](CCCCN)NC(=O)[C@@H]1CCCN1C(=O)[C@H](CCCNC(=N)N)NC(=O)[C@H](CCC(N)=O)NC(=O)[C@H](Cc1c[nH]c2ccccc12)NC(=O)[C@H](CS)NC(=O)[C@H](Cc1c[nH]c2ccccc12)NC(=O)[C@H](Cc1ccccc1)NC(=O)[C@H](CCCNC(=N)N)NC(=O)[C@H](CCCCN)NC(=O)[C@H](CCCCN)NC(=O)[C@H](CCCCN)NC(=O)[C@@H](NC(=O)[C@@H](NC(=O)[C@H](CC(C)C)NC(=O)[C@@H](N)CO)C(C)C)[C@@H](C)O)C(=O)O  MBC (Micrococcus luteus; NCTC 2665): 8 µg/mL (≈ 3.03 µM)
